Experimental data pooled from the literature.
Numbered parts are unrelated; each lists some results of a single study. Substitutions count along the parent as printed.

Series 1 — technique: DHFR PCA, deep sequencing; matrix: yeast; with: (+)-ABA 0.11 µM; relative to: wild-type fitted maximum; direction: higher = stronger binding
Target: ABI1, truncated, D143A, DHFR fusion (Arabidopsis thaliana)
Setting: methotrexate growth selection, single substitutions
Starting sequence: PYL1, truncated, DHFR fusion (Arabidopsis thaliana); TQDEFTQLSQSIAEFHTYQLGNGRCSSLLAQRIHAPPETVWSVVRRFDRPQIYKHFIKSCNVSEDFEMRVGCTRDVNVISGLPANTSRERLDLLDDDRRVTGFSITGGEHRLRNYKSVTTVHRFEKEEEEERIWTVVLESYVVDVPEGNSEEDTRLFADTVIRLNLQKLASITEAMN
Substitution | relative binding score
V142P | -5.34%
R24G | 2.74%
A158M | 15.5%
Y18F | 2.31%
I79R | 1.9%
G81D | 4.23%
I52N | 9.46%
R155C | 6.59%
H110W | 82%
I105Q | -3.49%
R46S | 4.87%
S59A | 13.5%
V78C | 36.5%
C60Q | -2.86%
T173P | 1.16%
S117Q | 1.88%
R69Y | 0.762%
Y141L | -0.367%
T119Y | -0.677%
T119G | -4.75%
G102K | -2.7%
E67D | 32.6%
S150A | 10.3%
G21H | 20.5%
E131N | 60.4%

Series 2 — target: CCNB3, cyclin fold, Cln2 fusion (human); technique: yeast growth competition, sequencing; matrix: yeast; setting: weak parent motif; relative to: not given; direction: higher = stronger binding
Starting sequence: PKMYT1 docking peptide (human); SFEPRNLLSLFED; partner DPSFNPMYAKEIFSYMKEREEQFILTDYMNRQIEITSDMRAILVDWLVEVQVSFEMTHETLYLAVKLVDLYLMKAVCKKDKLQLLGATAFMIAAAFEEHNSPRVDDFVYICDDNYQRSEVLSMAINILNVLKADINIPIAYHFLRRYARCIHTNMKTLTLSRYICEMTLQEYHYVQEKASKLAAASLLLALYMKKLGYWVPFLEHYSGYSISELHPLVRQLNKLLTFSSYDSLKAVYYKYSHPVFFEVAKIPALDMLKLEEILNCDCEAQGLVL
Substitution | normalised enrichment score
SFEPRNLLSLFEV [D13V] | 0.867
SFEPRNLLSWFED [L10W] | 0.602
SFEPWNLLSLFED [R5W] | 0.595
SFEPRNLLSLPED [F11P] | 0.167
MFEPRNLLSLFED [S1M] | 0.692
STEPRNLLSLFED [F2T] | 0.708
SFEPANLLSLFED [R5A] | 0.499
SFEPRNCLSLFED [L7C] | 0.666
SFEPFNLLSLFED [R5F] | 0.292
SFEPRNLLSIFED [L10I] | 1.03
SFEPRNLLSLFGD [E12G] | 0.457
SYEPRNLLSLFED [F2Y] | 0.0399
SFEPRNMLSLFED [L7M] | 0.405
SFEPRNLLSLFEM [D13M] | 0.568
SFEPPNLLSLFED [R5P] | 0.239
SFEPRNLLSLFID [E12I] | 0.621
SFEPRNLLSLFEK [D13K] | 0.359
VFEPRNLLSLFED [S1V] | 0.784
YFEPRNLLSLFED [S1Y] | -0.126

Series 3 — technique: protein-binding microarray; form: double-stranded DNA, one strand shown; matrix: in vitro; concentration: 940 nM top; setting: 60-bp whole probe; with: salmon DNA 0.4 mg/ml; relative to: random background probes; direction: higher = stronger binding; constant ends, left off below: GCCTAGCAC … GTCTTGATTCGCTTGACGCTGCTG
Target: Interferon regulatory factor 5, full length, phosphomimetic (IRF5, Homo sapiens, UniProt Q13568-2, residues 1-514, S451D/S453D/S456D/S462D)
Strand | fitted relative affinity
CCCTAGGGGCTCTCAGAGATGTGCTAG | -0.708 z-score
GACGATCTCAGACTGGGGACGTGCTAG | -0.294 z-score
GACGATCTCAGTATCGAGGCGTGCTAG | 1.61 z-score
TCACATTTTCGTTTTGTACTGTGCTAG | 2.26 z-score
TCAGATATCAGACTGGATTAGTGCTAG | -0.276 z-score
TCATTCATGAAGTTTTAAACTGTGCTA | -0.143 z-score
CCCAATCTCTCTTCACATATGTGCTAG | 1.54 z-score
GACGAACTGTGGTTTCGAGACGTGCTA | 2.29 z-score
TTTGGACACAGACACAGGCCGTGCTAG | -0.514 z-score
TCATTCTTGCATCTGGGACTGTGCTAG | 0.337 z-score
TTAGGTATCGGACTCGGTTAGTGCTAG | 3.58 z-score
GACGGACTGGACTATCAGGACGTGCTA | -0.216 z-score
TTAAGTATCGGGTATCGGTTAGTGCTA | 6.92 z-score
TTAGGTTTCGGTATCGCTTAGTGCTAG | 15.1 z-score
TACGGTCTCCTTATCCTGACGTGCTAG | 0.529 z-score
CTCTCCATGTGTTTAAAGACGTGCTAG | 0.24 z-score
TTAGGTCTCCTACTGTTTTAGTGCTAG | 0.414 z-score
CGGGCTTTCCCGTCCAGGGCGTGCTAG | -0.0534 z-score
GCCGGACTGGGGTATCGGGACGTGCTA | 0.247 z-score

Series 4 — technique: RNA Bind-n-Seq; form: RNA; matrix: in vitro; concentration: 365 nM; relative to: no-protein control; direction: higher = stronger binding
Target: RNA binding protein fox-1 homolog 2, RRM domain, GST-SBP tag (RBFOX2, Homo sapiens, UniProt O43251-10, residues 100-194)
Setting: natural RNA segment, single round, ends assumed
Construct (chain): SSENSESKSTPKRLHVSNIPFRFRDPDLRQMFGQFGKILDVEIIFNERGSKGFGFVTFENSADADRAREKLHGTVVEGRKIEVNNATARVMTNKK
Strand | RBNS enrichment (R)
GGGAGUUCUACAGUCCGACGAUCGGUGUUGGCCAGAAAAGUCCAGAUUCCUCUGGGAUCCCACCCUGGCCUCUCCUGGAACUCUGAACCUGCUGUGGAAGGAAUUGGCCAUGACCUUCACCUCUGGAGAGUAGUGGAAUUCUCGGGUGCCAA | 0.266
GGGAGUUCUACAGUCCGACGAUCAUGGCCAAUUAACUGAGAAUGUAAGAAAAUUGAUGCUGUACAAGGCAAAUAAAGCUGUUUAUUAACCUGAUGUCUUGUGCCUUUGCAUUCUGUGUUGCGGGGGCGUGAAAUGGAAUUCUCGGGUGCCAA | 1.71
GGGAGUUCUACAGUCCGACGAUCCCGGGUGGGGGCAAUGCAAAAUUGUAUUUGGAAACUAGGAAAAAUUAAGAAACCAAAUAAAUUGGUUUUGCUUCCUUGCCAUGGAUUCUGGAAGGACAUAGUUCUUCUAAUGGAAUUCUCGGGUGCCAA | 0.456
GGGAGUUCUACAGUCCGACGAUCCUGCCUGGGUUUUAUUUUUCUAAUCAGCAAGGUGCUUCACUGCCUUCUUGAGACGCCUCUCAAAGCUCUUAAAUGGCUCCUGUGCUAUGUGUGGUGUUGGCAGUCUAAUUUGGAAUUCUCGGGUGCCAA | 0.563
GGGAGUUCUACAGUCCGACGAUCCUGAGGCAUGGAGAGCAGAUUCAGGGUGUGUGUGUGUGUGUGUGUGUGUGUAUGUGCGUGUGCGUGCACAUGUGUGCCUGCGUGUUGGUAUAGGACUUUAAAGCUCCUUUUGGAAUUCUCGGGUGCCAA | 1.86
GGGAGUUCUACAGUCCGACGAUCUGGCUUUCAGGGUGUUCUGUGAAUCUCCUCAUGAAUACUUUAGGGUAGGGGAGGGAAGGGAGUGAGUGAUGCUCAGGGGCUGUCAAAGUGACUGCGUUCAUCAGUUUUACUGGAAUUCUCGGGUGCCAA | 0.506
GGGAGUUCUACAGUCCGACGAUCUGGCCUCUGCGGCCAGGAAGCCUGACACUAGGCACCCCCCAGGCGAGAGCUAGUGGGGUGCAGAGGGCCCCAUGCCAGACAGCCCUUGGGGCUCGUUGCACUUUAAGAAAUGGAAUUCUCGGGUGCCAA | 0.301
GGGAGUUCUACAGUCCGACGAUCAUUACCACACCCUUCCCAGGGACCAGCACCUUUAAGCACUCCAGGGCCUUGAGGGAAUAAGGGGCCCCUGGCUCUGGGGACCCACCCGGUGGGACUUAGUGGUGAGACACUGGAAUUCUCGGGUGCCAA | 0.408
